Experimental data of several laboratories.
Protocols differ between the studies behind these lines. ± marks the error that the study gave.
T1: i-motif DNA hif-1α promoter (Homo sapiens); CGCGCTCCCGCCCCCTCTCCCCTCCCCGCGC

SMILES	target	assay	test system	conditions	scale	quantity	value
O=C1CCc2ccc(OCCCCN3CCN(c4cccc5c4ccn5Cc4ccccc4)CC3)cc2N1	D(2) dopamine receptor, long isoform (DRD2, Homo sapiens, UniProt P14416)	–	human cells	concentration not given	–	activity	inactive
CC(C)(C)c1c[c-]c(-c2cncc(-c3[c-]cc(C(C)(C)C)cc3)n2)cc1.CN1[C]N(C)c2c1c(=O)n(C)c(=O)n2C.[Au+3]	T1, i-motif DNA hif-1α promoter (Homo sapiens)	FRET DNA melting	–	20 µM, pH 7.2, NaCl 100 mM, upper bound	–	melting temperature shift	24 °C
O=C1c2ccccc2CCc2ccccc2N1CCCCOc1ccccc1	Gap junction alpha-8 protein (Gja8, Mus musculus, UniProt P28236)	dual whole-cell voltage clamp	N2a cell pairs, transfected	10 µM	–	junctional current	inhibited
N#Cc1cnc(Nc2nc3ccccc3o2)nc1-c1ccccc1Cl	Grm5 (Rattus norvegicus, UniProt P31424)	calcium mobilization, negative allosteric modulator	–	added: glutamate EC80	reference: maximal glutamate response	maximal response	2.2 ± 0.5%
CN(C1COC1)C(C)(C)/C=C(\C#N)C(=O)N1CCC[C@H]1Cn1nc(-c2ccc(Oc3ccccc3)cc2F)c2c(N)ncnc21	Tyrosine-protein kinase (Rattus norvegicus, UniProt Q5S255)	–	rat, PBMC	oral, 40 mg/kg, 1 h, added: BODIPY probe	–	target occupancy	74 ± 9%
COC(=O)c1ccc(CNC(=O)[C@@H]2C[C@@H](O)CN2C(=O)Cc2cc(C)no2)cc1	von Hippel-Lindau disease tumor suppressor, with Elongin B/C (VHL, Homo sapiens, UniProt P40337)	isothermal titration calorimetry	–	25 °C	–	entropic term (−TΔS)	4.51 ± 0.22 kcal/mol
O=C(CCCC[C@@H]1SC[C@@H]2NC(=O)N[C@@H]21)NCCCNC(=O)Cn1nc(-c2ccccc2)c2c(Cl)c(-c3ccccc3)nnc21	HSP90AB1 (Homo sapiens, UniProt P08238)	peptide conjugation	–	–	–	covalent conjugation	~2%
CCOCCNC(=O)N1CCC[C@H](c2n[nH]c(-c3ccccc3)n2)C1	Aromatase (CYP19A1, Homo sapiens, UniProt P11511)	enzyme activity, inhibitor, MFC to HFC conversion	–	10 µM, added: MFC substrate	–	apparent Km	45.4 µM
CNc1ccccc1C(=O)O[C@H]1C[C@H](n2cnc3c(N)ncnc32)O[C@@H]1COP(=O)(O)OP(=O)(O)O	Unconventional myosin-Va (Gallus gallus, UniProt Q02440, D297C/G292C/I296C/S293C/V295G)	stopped-flow FRET	–	4 °C, added: MgCl2 2 mM	–	dissociation rate constant	0.7 ± 0.2 s⁻¹
CCN(CC)C(=O)C1CCCN(C(=O)Nc2ccc3nc(-c4ccco4)c(-c4ccco4)nc3c2)C1 (stereo not drawn)	PPIA (Homo sapiens, UniProt P62937)	tryptophan fluorescence quenching	–	6 µM PPIA, added: ciclosporin 20 µM	–	50% occupancy concentration	13.2 µM
CC1=C(C)C(Oc2c(F)cc3c(C)cc(=O)oc3c2F)OC1=O (racemic)	D14 (Arabidopsis thaliana, UniProt Q9SQR3)	substrate, pre-steady-state kinetics, item: DiFMU release	–	–	–	kcat	0.0005 ± 3.33e-05 s⁻¹
CC[C@H](C)[C@H](NC(=O)[C@@H](NC(=O)[C@H](Cc1ccc(O)cc1)NC(=O)[C@H](Cc1ccc(O)cc1)NC(=O)[C@H](CC(N)=O)NC(=O)[C@H](CCC(=O)O)NC(=O)[C@H](Cc1ccccc1)NC(=O)[C@@H](NC(=O)[C@H](CO)NC(=O)[C@H](CCC(=O)O)NC(=O)[C@H](CCCCN)NC(=O)[C@H](Cc1ccccc1)NC(=O)[C@@H](N)CCCCN)C(C)C)C(C)C)C(=O)N[C@@H](Cc1ccc(O)cc1)C(=O)N[C@@H](CO)C(=O)N[C@@H](CO)C(=O)N[C@@H](CCSC)C(=O)N[C@@H](CC(C)C)C(=O)N[C@@H](Cc1ccc(O)cc1)C(=O)N[C@@H](CCCNC(=N)N)C(N)=O	Fibroblast growth factor 14 (Homo sapiens, UniProt Q92915)	–	–	–	–	koff	0.0464 ± 0.0072 s⁻¹
